# Experimental data gathered from unrelated publications.
# Each line is one published result; not all experiments were run side by side. ± marks the error that the study gave.
# Oprk1: Kappa-type opioid receptor (Oprk1, Rattus norvegicus, UniProt P34975)
# Chain of UniProt P34975 (whole entry, looked up): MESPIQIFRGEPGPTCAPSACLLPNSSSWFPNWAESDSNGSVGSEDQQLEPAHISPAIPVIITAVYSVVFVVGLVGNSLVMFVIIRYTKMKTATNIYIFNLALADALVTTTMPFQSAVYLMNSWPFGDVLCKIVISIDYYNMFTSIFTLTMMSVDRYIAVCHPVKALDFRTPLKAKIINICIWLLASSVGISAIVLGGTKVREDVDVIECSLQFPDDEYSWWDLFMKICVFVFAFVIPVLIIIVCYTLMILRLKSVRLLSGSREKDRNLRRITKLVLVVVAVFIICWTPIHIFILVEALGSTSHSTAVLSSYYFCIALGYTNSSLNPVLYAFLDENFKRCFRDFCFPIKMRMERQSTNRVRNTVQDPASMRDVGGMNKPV
# ampC: Beta-lactamase (ampC, Escherichia coli K-12, UniProt P00811)
# Chain of UniProt P00811 (whole entry, looked up): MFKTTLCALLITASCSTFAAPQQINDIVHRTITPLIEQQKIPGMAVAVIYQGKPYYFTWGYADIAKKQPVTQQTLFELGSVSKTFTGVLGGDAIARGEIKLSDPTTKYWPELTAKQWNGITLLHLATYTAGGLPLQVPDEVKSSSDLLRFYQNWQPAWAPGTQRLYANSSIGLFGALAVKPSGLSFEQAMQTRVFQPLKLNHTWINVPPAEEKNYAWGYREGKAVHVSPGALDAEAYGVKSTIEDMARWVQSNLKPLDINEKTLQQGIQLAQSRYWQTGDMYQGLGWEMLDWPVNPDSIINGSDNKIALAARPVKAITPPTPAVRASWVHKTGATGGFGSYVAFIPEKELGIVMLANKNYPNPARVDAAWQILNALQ
# ache: Acetylcholinesterase (ache, Electrophorus electricus, UniProt O42275)
# Chain of UniProt O42275 (whole entry, looked up): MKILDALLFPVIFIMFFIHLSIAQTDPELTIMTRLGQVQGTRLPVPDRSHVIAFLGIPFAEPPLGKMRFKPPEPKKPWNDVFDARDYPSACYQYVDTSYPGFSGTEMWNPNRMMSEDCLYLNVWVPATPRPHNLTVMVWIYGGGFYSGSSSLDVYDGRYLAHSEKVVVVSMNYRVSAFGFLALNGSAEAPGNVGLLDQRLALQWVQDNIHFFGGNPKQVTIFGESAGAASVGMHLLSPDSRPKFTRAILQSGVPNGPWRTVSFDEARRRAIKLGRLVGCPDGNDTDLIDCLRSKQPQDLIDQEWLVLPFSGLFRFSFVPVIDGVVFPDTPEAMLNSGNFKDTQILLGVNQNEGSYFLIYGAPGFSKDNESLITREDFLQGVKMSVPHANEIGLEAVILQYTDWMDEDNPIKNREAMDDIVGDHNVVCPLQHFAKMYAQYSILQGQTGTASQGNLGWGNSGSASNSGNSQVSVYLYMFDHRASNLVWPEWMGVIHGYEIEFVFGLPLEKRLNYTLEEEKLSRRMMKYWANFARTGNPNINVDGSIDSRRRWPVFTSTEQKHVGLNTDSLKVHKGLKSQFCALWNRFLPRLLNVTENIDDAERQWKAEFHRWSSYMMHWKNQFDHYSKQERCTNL
# Chain of UniProt Q9Y478 (whole entry, looked up): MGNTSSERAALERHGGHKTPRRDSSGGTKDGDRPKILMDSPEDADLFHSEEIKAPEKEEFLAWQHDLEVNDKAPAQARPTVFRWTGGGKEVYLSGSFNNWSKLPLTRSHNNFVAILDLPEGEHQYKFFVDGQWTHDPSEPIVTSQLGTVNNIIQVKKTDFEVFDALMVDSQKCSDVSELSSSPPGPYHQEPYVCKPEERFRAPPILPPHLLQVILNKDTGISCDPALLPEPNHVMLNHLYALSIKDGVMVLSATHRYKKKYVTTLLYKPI
# Chain of UniProt P08191 (whole entry, looked up): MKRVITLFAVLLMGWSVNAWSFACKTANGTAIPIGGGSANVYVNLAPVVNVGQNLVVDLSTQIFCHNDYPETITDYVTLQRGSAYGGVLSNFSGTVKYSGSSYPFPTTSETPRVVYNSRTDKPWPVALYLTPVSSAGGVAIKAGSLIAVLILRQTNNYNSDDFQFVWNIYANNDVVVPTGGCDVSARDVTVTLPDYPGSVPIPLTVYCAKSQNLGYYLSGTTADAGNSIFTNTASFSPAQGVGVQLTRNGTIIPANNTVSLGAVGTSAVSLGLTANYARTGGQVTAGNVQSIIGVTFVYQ
# Chain of UniProt O60502 (whole entry, looked up): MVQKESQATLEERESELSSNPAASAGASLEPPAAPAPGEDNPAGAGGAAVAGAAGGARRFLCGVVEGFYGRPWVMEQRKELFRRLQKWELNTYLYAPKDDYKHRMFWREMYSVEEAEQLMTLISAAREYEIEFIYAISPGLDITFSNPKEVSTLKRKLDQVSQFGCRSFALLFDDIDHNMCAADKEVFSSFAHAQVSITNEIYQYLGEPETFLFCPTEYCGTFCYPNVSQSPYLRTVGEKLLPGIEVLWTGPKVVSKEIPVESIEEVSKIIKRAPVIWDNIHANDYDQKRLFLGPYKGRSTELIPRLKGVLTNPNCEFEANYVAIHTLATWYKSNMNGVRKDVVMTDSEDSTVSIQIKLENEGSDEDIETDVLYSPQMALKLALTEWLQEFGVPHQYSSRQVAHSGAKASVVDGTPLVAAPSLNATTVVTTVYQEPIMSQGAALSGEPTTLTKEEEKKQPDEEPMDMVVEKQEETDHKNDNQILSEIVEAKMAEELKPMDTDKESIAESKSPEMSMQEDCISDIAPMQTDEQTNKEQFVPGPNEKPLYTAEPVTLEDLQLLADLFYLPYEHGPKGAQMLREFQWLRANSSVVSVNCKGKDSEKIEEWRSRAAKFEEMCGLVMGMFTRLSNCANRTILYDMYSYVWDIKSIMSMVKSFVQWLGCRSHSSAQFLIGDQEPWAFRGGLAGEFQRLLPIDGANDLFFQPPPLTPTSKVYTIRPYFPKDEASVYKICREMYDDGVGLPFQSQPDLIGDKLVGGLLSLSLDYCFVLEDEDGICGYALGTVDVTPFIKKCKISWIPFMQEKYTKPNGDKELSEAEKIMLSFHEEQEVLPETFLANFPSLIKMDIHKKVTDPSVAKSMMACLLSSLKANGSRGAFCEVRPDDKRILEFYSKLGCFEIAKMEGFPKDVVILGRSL
# Chain of UniProt Q13131 (whole entry, looked up): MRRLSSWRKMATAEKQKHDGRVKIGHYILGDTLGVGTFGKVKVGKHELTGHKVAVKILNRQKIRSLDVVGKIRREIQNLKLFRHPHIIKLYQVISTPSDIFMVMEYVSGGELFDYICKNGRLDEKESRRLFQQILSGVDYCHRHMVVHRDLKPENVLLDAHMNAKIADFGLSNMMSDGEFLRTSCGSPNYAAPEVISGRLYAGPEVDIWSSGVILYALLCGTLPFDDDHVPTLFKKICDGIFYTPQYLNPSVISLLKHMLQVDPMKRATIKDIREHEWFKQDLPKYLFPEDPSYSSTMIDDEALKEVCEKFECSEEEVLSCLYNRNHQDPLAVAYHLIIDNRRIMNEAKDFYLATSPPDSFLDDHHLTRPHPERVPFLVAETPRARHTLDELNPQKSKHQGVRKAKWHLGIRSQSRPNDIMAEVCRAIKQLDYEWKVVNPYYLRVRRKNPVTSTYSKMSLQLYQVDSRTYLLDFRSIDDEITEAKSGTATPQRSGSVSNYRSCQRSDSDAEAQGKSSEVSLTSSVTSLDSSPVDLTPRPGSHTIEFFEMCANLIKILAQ
# Chain of UniProt P46098 (whole entry, looked up): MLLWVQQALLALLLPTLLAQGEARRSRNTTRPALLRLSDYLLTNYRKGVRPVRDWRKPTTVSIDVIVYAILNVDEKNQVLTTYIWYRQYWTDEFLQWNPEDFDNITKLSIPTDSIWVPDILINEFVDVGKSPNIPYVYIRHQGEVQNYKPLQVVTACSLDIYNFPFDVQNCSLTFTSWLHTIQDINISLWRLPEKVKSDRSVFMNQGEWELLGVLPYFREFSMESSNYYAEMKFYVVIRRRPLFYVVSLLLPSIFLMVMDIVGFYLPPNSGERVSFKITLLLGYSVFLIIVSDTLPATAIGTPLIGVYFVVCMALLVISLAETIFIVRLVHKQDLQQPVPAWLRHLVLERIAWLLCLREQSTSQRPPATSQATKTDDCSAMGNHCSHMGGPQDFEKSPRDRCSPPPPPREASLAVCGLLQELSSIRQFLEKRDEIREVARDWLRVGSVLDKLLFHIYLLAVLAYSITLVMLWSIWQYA
# Chain of UniProt Q2FV99 (whole entry, looked up): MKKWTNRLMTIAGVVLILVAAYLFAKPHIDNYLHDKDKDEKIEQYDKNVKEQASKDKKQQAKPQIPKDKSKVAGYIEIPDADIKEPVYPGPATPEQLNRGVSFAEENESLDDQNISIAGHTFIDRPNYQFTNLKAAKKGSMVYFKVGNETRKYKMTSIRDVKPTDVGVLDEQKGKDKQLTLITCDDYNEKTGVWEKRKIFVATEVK
Compound,target or system,assay,test system,setting,scale,measurement,result
CCCNC(=O)[C@H](CC(C)C)NC(=O)[C@H](Cc1c[nH]cn1)NC(=O)CNC(=O)[C@@H](NC(=O)[C@H](C)NC(=O)[C@H](Cc1c[nH]c2ccccc12)NC(=O)[C@H](CCC(N)=O)NC(=O)[C@@H](Cc1ccccc1)NC(=O)CCCCCNC(=O)CN1CCN(CC(=O)O)CCN(CC(=O)O)CCN(CC(=O)O)CC1)C(C)C [indium-111 labelled],"Gastrin-releasing peptide receptor (Mus musculus, UniProt P21729)",biodistribution,"CF-1 mice, lung","intravenous, 1 h, unblocked",,tissue uptake,1.37 ± 0.08 %ID/g
CN1C(=O)C2(Cc3ccc(CC45SSC(CO)(C(=O)N4C)N(C)C5=O)cc3)SSC1(CO)C(=O)N2C (racemic),"Histone acetyltransferase p300, CH1 domain (EP300, Homo sapiens, UniProt Q09472)",SPR,,"p300 CH1 domain GST fusion, with: DTT 100 µM",,association rate constant,5100 M⁻¹ s⁻¹
O=C(c1cccc(-n2cccc2)c1)N1CCCN(S(=O)(=O)c2ccc(F)cc2)CC1,"Genome polyprotein, 3C protease (rhinovirus B14, UniProt P03303)","protease activity, SAMDI-MS",,,,Hill slope,1.45
N=C(N)NCCC[C@@H]1NC(=O)[C@H](CCCNC(=N)N)NC(=O)[C@H](NC(=O)[C@H](Cc2ccccc2)NC(=O)CNC(=O)CNC(=O)[C@H](Cc2ccc(O)cc2)NC(=O)c2ccccc2)CC(=O)NC[C@@H](C(=O)N[C@@H](CCCNC(=N)N)C(=O)N2CCC[C@H]2C(=O)N[C@@H](CCCCN)C(N)=O)NC1=O,Oprk1,binding,,,baseline: zyklophin,affinity fold decrease,3.6 fold
COc1ccc(CNc2nc(N3CCC[C@H]3CO)ncc2C(=O)NN)cc1Cl,Salmonella typhimurium,,TA1535,"500 µg/plate, 48 h",,revertant count,41 ± 6
O=C(/C=C/c1ccc(Cl)cc1)c1ccc(N2CCNCC2)cc1,"Beta-secretase 1 (BACE1, Homo sapiens, UniProt P56817)","enzyme activity, inhibitor, fluorescence",,10 µM,,remaining activity,40.3%
O=C(N=P12CN3CN(CN(C3)C1)C2)c1ccccn1.[Cl][Pd][Cl],"Albumin (ALB, Homo sapiens, UniProt P02768)","binding, circular dichroism",,"20 h, pH 7.39, 37 °C",,saturating equivalents,4 equivalents
Cn1cc(-c2cccc(CN3CCC4(CC3)COc3c4ccc4c3CN([C@H]3CCC(=O)NC3=O)C4=O)c2)cn1,"CRBN/Zinc finger protein Helios (Homo sapiens, UniProt Q96SW2+Q9UKS7)","degrader, flow cytometry",human primary regulatory T cells,6 h,,Dmax,92%
CCCCCCCCCCCCCCCc1ccc(COP(O)(O)=S)cc1,"Autotaxin (ENPP2, Homo sapiens, UniProt Q13822)",,,enzyme substrate complex,,Ki′,4.43 µM
"CCOC(=O)C1C(OC(c2ccc(Cl)cc2)c2ccc(Cl)cc2)CC2CCC1N2C (single isomer, unassigned)","ATP-binding cassette sub-family C member 8 (ABCC8, Cricetus cricetus, UniProt Q09427)","binding, radioligand displacement",,"inactive if below 75% at 10000 nM, with: [3H]glyburide",,Ki,inactive
C=C(C)C(=O)Oc1ccc(C(C)(C)c2ccc(OC(=O)C(=C)C)cc2)cc1,"Estrogen receptor (ESR1, Homo sapiens, UniProt P03372)","reporter gene, agonist",MVLN,24 h,,maximal effect concentration,10 µM
CC(C)C[C@H](NC(=O)[C@H](CCCNC(=N)N)NC(=O)[C@H](Cc1ccccc1)NC(=O)[C@H](Cc1ccccc1)NC(=O)[C@H](Cc1ccccc1)N(C)C(=O)COc1ccccc1)C(=O)N[C@@H](CCCNC(=N)N)C(=O)N[C@@H](CCCNC(=N)N)C(=O)N[C@H](C)C(=O)N[C@@H](CCCNC(=N)N)C(=O)N1CCC[C@H]1C(=O)N[C@@H](CCCCN)C(N)=O,Oprk1,agonist,CHO cells,10 µM,baseline: dynorphin A(1-13) amide,adenylyl cyclase activity,98 ± 21%
CCC(=O)N(C)c1ccc(Cl)c(Cl)c1,Escherichia coli,Ames test,WP2 uvrA,"0.50 mg/plate, with rat liver S9",,revertants,44 ± 5 revertants/plate
CC(=O)N[C@H]1c2nc(CCc3ccccc3)cn2[C@H](CO)[C@@H](O)[C@@H]1O,"Protein O-GlcNAcase (OGA, Homo sapiens, UniProt O60502)",,,,baseline: over GlcNAcstatin A,potency ratio,~10 fold
OB(O)c1cc2ccc(OCc3ccccc3)cc2[nH]1,ampC,,,,,ligand efficiency,0.38
CC(C)C[C@H](NC(=O)[C@H](Cc1ccccc1)NC(=O)CNC(=O)CNC(=O)[C@@H](N)Cc1ccc(O)cc1)C(=O)O,,"K+ current, agonist, photo-uncaging",rat locus coeruleus neurons,dendritic currents,,reversal potential,-132 ± 4.8 mV
C=C(C)C1C2OC(=O)C1C1(O)CC3OC34C(=O)OC2C14C (stereo not drawn),"Rdl (Drosophila melanogaster, UniProt P25123)","GABA-induced current, antagonist, two-electrode voltage clamp",Xenopus oocytes,"wild-type receptor, with: GABA at EC50",,Hill coefficient,0.73 ± 0.13
FC(F)(F)c1ccc(Nc2c3c(nc4ccccc24)CCCC3)cc1,ache,,,100 µM,,inhibition,94.5 ± 1.71%
CN1CCN(c2nc3ccccc3nc2Cl)CC1,"5-hydroxytryptamine receptor 3A (HTR3A, Homo sapiens, UniProt P46098)","agonist response, two-electrode voltage clamp",Xenopus oocytes,concentration not given,,duration of inhibition,> 20 min
CCOC(=O)C1=C(COCCN)NC(C)=C(C(=O)OC)C1c1ccccc1Cl (stereo not drawn),"srtA (Staphylococcus aureus, UniProt Q2FV99)","binding, fluorescence quenching",,,,Stern-Volmer constant,4700 L/mol
CN[C@](C)(C[18F])C(=O)O,SK-OV-3 tumour model,,"host not given, lung","2 h, tumour-bearing",,tracer uptake,1.2 %ID/g
CS(C)(=O)=Nc1ccc(-c2ccc(-c3nc4cc(O[C@@H]5CO[C@H]6[C@@H]5OC[C@H]6O)[nH]c4cc3F)cc2)cc1,"PRKAA1/PRKAB1, with gamma1 (Homo sapiens, UniProt Q13131+Q9Y478)","enzyme activity, activator",,"60 min, 50% above basal activity, with: ATP 50 µM",,EC150,0.337 nM
CC[C@H](C)[C@H](NC(=O)[C@H](CC(N)=O)NC(=O)[C@H](CCCCN)NC(=O)[C@@H](NC(=O)[C@@H](N)CC(C)C)[C@@H](C)CC)C(=O)NCC(=O)N[C@H](C(=O)N[C@H](C(=O)N[C@H](C(=O)N[C@@H](CO)C(=O)N[C@@H](CCCCN)C(=O)N[C@H](C(=O)N[C@H](C(=O)N[C@@H](CCCCN)C(=O)N[C@H](C(=O)N[C@H](C(=O)N[C@@H](Cc1c[nH]c2ccccc12)C(=O)N[C@@H](CCCCN)C(=O)N[C@@H](Cc1ccccc1)C(=O)N[C@H](C(=O)N[C@@H](CC(=O)O)C(=O)N[C@@H](CC(=O)O)C(=O)O)[C@@H](C)O)C(C)C)[C@@H](C)O)[C@@H](C)CC)[C@@H](C)CC)C(C)C)[C@@H](C)CC)[C@@H](C)O,,"lipid vesicle binding, stopped-flow FRET",POPC vesicles,pH 7.5,,kon,15000 M^–1 s^–1
CC[C@H](C)[C@H](NC(=O)[C@H](CCC(N)=O)NC(=O)[C@H](CC(C)C)NC(=O)[C@@H](NC(=O)CNC(=O)[C@H](Cc1ccc(O)cc1)NC(=O)[C@H](CC(=O)O)NC(=O)[C@@H](NC(=O)[C@H](CO)NC(=O)CNC(=O)[C@H](CC(=O)O)NC(=O)[C@@H](NC(=O)[C@H](CC(N)=O)NC(=O)[C@H](CCCNC(=N)N)NC(=O)[C@H](CC(N)=O)NC(=O)[C@@H](NC(=O)[C@H](C)NC(=O)[C@H](CCC(N)=O)NC(=O)[C@@H](NC(=O)[C@H](CC(N)=O)NC(=O)[C@H](Cc1ccccc1)NC(=O)[C@H](CC(N)=O)NC(=O)[C@H](CO)NC(=O)[C@H](CCC(=O)O)NC(=O)[C@H](Cc1ccccc1)NC(=O)[C@H](CCCCN)NC(=O)[C@H](C)NC(=O)[C@H](C)NC(=O)[C@H](CO)NC(=O)[C@@H](NC(=O)[C@H](Cc1c[nH]c2ccccc12)NC(=O)[C@H](CC(N)=O)NC(=O)CNC(=O)[C@H](CC(C)C)NC(=O)[C@H](CO)NC(=O)[C@H](Cc1ccc(O)cc1)NC(=O)CNC(=O)[C@H](CCCNC(=N)N)NC(=O)[C@H](Cc1ccc(O)cc1)NC(=O)[C@H](CC(N)=O)NC(=O)[C@@H](N)CC(=O)O)C(C)C)[C@@H](C)O)[C@@H](C)O)[C@@H](C)O)[C@@H](C)O)[C@@H](C)CC)C(=O)O,"Periplasmic serine endoprotease DegP (degP, Escherichia coli, UniProt P0C0V0, C83S/C95S/N322C)",FRET,,"10 µM, with: protein 500 nM",,cage assembly half-life,0.225 ± 0.0117 min
C[C@@](O)(C(F)F)[C@H](NC(=O)c1ccc(C#CC#CC2CC2)cc1)C(=O)NO,,,"dog, plasma","intravenous, 100 mg/kg",,half-life,66 min
C[C@]1(COC(=O)c2ccc(O)c(O)c2)[C@H](C(=O)O)N2C(=O)/C(=C/c3ccccn3)[C@H]2S1(=O)=O,"Beta-lactamase OXA-23 (OXA-23, Acinetobacter baumannii, UniProt Q9L4P2)","enzyme activity, inhibitor, absorbance",,,,kinact/KI,57000 M⁻¹ s⁻¹
O=C(O)C1C2C=CC(C2)C1C(O)=S (stereo not drawn),ampC,,,,,ligand efficiency,0.33
CCN(Cc1ccccc1)C(=O)CCc1nc(CN2CCN(C(=O)Cc3ccc(OC)c(OC)c3)CC2)no1,"Sodium channel protein type 9 subunit alpha (SCN9A, Homo sapiens, UniProt Q15858)",whole-cell patch clamp,HEK stable,300 nM,,V1/2 of inactivation,-76 ± 6.81 mV
CNC(=O)c1cccc(-c2ccc(O[C@H]3O[C@H](CO)[C@@H](O)[C@H](O)[C@@H]3O)cc2)c1,"Type 1 fimbrin D-mannose specific adhesin, lectin domain (fimH, Escherichia coli K-12, UniProt P08191)","binding, differential scanning fluorimetry",,,higher = stronger binding,melting temperature,73.1 °C
CC(C)[C@H](NC(=O)CNC(=O)[C@H](CCC(N)=O)NC(=O)[C@H](C)N)C(=O)O,,,human,"10 mg/kg thrice daily, 3 days",,unlikely related or unrelated adverse events,16.7%
CC(C)P(=S)(NP(=S)(C(C)C)C(C)C)C(C)C,"Alpha-amylase (Bacillus subtilis, UniProt P00691)","binding, FRET",,298 K,,energy transfer efficiency,25.5%
CC(=O)NC(Cc1ccc(Br)c(Cl)c1)C(=O)N[C@@H](C)C(=O)N1CCC[C@H]1C(=O)N1CCC[C@H]1C(=O)N[C@@H](CCC(=O)O)C(=O)N[C@@H](Cc1c[nH]cn1)C(=O)N[C@@H](CO)C(=O)N[C@H](C(=O)N[C@@H](C)C(N)=O)[C@@H](C)OP(=O)(O)O (stereo partly drawn),"Serine/threonine-protein kinase D2 (PRKD2, Homo sapiens, UniProt Q9BZL6)","enzyme activity, inhibitor",,10 µM,,inhibition,0.95%
COc1ccc([C@@H]2N=NC(NCCc3c[nH]c4ccc(C)cc34)=NC2=O)cc1,ache,peripheral site binding,,0.24 µM,,propidium displacement,29%
